Results gathered from unrelated publications.
Compare with care: the assays were run in different laboratories. Values joined by “and” are separate records of one study, mostly repeats; a detail may differ. ± gives the spread as reported.

The inhibition of `C#CCOc1ccc(/C=C/C(=O)N2CCC(Cc3ccccc3)CC2)cc1OC` is reported as 32.8% (BV-2; NO release, inhibitor, Griess; 5 µM, LPS-stimulated).
`COc1ccc(CC(=O)Nc2nc3ccccc3n2Cc2ccccc2)cc1` gave an inhibition of > 50% (MDA-MB-231-HRE-Luc; HIF reporter gene, inhibitor, HRE luciferase reporter; 10 µM, hypoxia; baseline: untreated).
The inhibition of `COc1ccc2c(c1)c(CC(=O)O)c(C)n2C(=O)c1ccc(Cl)cc1` is reported as 95.3% (human erythrocytes; hypotonicity-induced hemolysis; 600 µg/mL, 1 h).
With `CC(C)Oc1ccc(S(=O)(=O)c2ccc(Oc3cc(OCC(N)=O)c(C(=O)C(Cl)Cl)cc3[N+](=O)[O-])cc2)cc1` the inhibition was > 95% (NCI-H1975; cell growth or viability, MTT; 2.5 µM).
The inhibition of `O=C1CCC(=O)C2(CCCCC2)N1` is reported as 69% (human erythrocytes; hypotonicity-induced hemolysis; 400 µg/mL, 1 h).
For `O=C(Cc1ccc(Cl)cc1)Nc1nc2ccccc2n1Cc1ccc(Br)cc1`, the inhibition was > 50% (MDA-MB-231-HRE-Luc; HIF reporter gene, inhibitor, HRE luciferase reporter; 10 µM, hypoxia; baseline: untreated).
`NC1=NC(=S)NC12CCCCC2` gave an inhibition of 92.8% (human erythrocytes; hypotonicity-induced hemolysis; 400 µg/mL, 1 h).
`CCn1c(-c2ccc(Br)cc2)cs/c1=N/N=C(\C)c1ccccn1` has an inhibition of 67.2% (HepG2; cell growth or viability, SRB; 100 µg/mL, 48 h).
`CCCOCc1ccc(C=O)o1` gave an inhibition of 62.9% and > 54% (human sickle red blood cells; sickling; 2 mM, 2 h, 37 °C, hematocrit 20%, 4% oxygen).
With `Sc1nc2ccccc2s1` the IC50 was 131 µM (cysteine peptide Ac-RFAACAA-COOH; peptide depletion, DPRA RapidFire-MS/MS; 24 h, pH 7.5, room temperature, together with: 5.0 µM cysteine peptide).
`COCc1ccc(C=O)o1` gave an inhibition of 35.3 ± 6.1% (human sickle red blood cells; sickling; 2 mM, 2 h, 37 °C, hematocrit 20%, 4% oxygen).
`Cc1cc(-c2ccccc2)c2c(n1)C1(CCCCC1)NC2=O` has an inhibition of 85.4% (human erythrocytes; hypotonicity-induced hemolysis; 800 µg/mL, 1 h).
The inhibition of `C/C(=N\NC(N)=S)c1ccccn1` is reported as 57.6% (HepG2; cell growth or viability, SRB; 100 µg/mL, 48 h).
With `O=C1NC2(CCCCC2)c2nc3c(c(-c4ccccc4)c21)CCCC3` the inhibition was 91.1% (human erythrocytes; hypotonicity-induced hemolysis; 800 µg/mL, 1 h).
`O=C1CCc2ccccc2O1` — result for “maximal peptide depletion”: -56.7% (cysteine peptide Ac-RFAACAA-COOH; DPRA RapidFire-MS/MS; 24 h, pH 7.5, together with: 5.0 µM cysteine peptide).
`COC(=O)c1cc(OC)c2c(c1-c1c(CO)cc(OC)c3c1OCO3)OCO2` gave an inhibition of 66% (WB-F344 rat liver; hepatocyte damage; 10 µM, together with: D-galactosamine).
`O=C(Cc1ccc(F)cc1)Nc1nc2ccccc2n1Cc1ccc(Cl)cc1` gave an inhibition of > 50% (MDA-MB-231-HRE-Luc; HIF reporter gene, inhibitor, HRE luciferase reporter; 10 µM, hypoxia; baseline: untreated).
With `CCN(c1nc(N)c(C(=O)NC(=N)N)nc1Cl)C(C)C` the inhibition was 75.1% (MCEC mouse; transfection reporter gene; 25 µg/mL, 1 h; baseline: vehicle).
For `C/C(=N\N=c1/[nH]c(C)cs1)c1ccccn1`, the inhibition was 72% (HepG2; cell growth or viability, SRB; 100 µg/mL, 48 h).
`CC(C)[C@H](NC(=O)c1ccc2ccccc2n1)C(=O)N[C@@H](CC(=O)O)C(=O)COc1c(F)cccc1F` gave an inhibition of 25% (glioblastoma cells; caspase-3/7 activation, CellEvent fluorescence; 100 µM, together with: MED2).
The inhibition of `C[C@@H](Oc1cc(-c2cnn(C3CCNCC3)c2)cnc1N)c1c(Cl)ccc(F)c1Cl` is reported as 75.7% (KARPAS-299; cell growth or viability, MTT; 2 µg/mL).
With `O=C1NC2(CCCCC2)c2[nH]c(=S)nc(-c3ccccc3)c21` the inhibition was 67.6% (human erythrocytes; hypotonicity-induced hemolysis; 100 µg/mL, 1 h).

Excerpt of the above:
`CCn1c(-c2ccc(Br)cc2)cs/c1=N/N=C(\C)c1ccccn1` has an inhibition of 67.2% (HepG2; cell growth or viability, SRB; 100 µg/mL, 48 h).
`CCCOCc1ccc(C=O)o1` gave an inhibition of 62.9% and > 54% (human sickle red blood cells; sickling; 2 mM, 2 h, 37 °C, hematocrit 20%, 4% oxygen).
